Assay results of several laboratories.
Each numbered part is a random draw from the data of one study; scales do not carry over between parts.

Set 1
Target: Histone acetyltransferase KAT6A, both winged helices, GST fusion (KAT6A, Homo sapiens, UniProt Q92794, residues 1-181)
Method: protein binding microarray
Molecule type: double-stranded DNA, one strand shown
Sample: in vitro
Concentration: not given
Notes: 8-mer, flanks averaged, mean of 2 arrays, mostly near background
Reference: not given
Direction: higher = stronger binding
Target sequence (chain): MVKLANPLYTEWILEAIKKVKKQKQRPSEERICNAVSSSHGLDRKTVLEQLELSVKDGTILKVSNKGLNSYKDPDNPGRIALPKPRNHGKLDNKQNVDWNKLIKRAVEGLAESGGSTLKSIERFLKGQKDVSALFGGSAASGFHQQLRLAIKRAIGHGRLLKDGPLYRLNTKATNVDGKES
Strand	E-score
CAGACCCC	-0.0507
CGATGGCG	0.214
TGCGCCCA	0.0668

Set 2
Target: Sal-like protein 4, full length isoform A (SALL4, Homo sapiens, UniProt Q9UJQ4, residues 1-1053)
UniProt Q9UJQ4, sequence (whole entry, looked up): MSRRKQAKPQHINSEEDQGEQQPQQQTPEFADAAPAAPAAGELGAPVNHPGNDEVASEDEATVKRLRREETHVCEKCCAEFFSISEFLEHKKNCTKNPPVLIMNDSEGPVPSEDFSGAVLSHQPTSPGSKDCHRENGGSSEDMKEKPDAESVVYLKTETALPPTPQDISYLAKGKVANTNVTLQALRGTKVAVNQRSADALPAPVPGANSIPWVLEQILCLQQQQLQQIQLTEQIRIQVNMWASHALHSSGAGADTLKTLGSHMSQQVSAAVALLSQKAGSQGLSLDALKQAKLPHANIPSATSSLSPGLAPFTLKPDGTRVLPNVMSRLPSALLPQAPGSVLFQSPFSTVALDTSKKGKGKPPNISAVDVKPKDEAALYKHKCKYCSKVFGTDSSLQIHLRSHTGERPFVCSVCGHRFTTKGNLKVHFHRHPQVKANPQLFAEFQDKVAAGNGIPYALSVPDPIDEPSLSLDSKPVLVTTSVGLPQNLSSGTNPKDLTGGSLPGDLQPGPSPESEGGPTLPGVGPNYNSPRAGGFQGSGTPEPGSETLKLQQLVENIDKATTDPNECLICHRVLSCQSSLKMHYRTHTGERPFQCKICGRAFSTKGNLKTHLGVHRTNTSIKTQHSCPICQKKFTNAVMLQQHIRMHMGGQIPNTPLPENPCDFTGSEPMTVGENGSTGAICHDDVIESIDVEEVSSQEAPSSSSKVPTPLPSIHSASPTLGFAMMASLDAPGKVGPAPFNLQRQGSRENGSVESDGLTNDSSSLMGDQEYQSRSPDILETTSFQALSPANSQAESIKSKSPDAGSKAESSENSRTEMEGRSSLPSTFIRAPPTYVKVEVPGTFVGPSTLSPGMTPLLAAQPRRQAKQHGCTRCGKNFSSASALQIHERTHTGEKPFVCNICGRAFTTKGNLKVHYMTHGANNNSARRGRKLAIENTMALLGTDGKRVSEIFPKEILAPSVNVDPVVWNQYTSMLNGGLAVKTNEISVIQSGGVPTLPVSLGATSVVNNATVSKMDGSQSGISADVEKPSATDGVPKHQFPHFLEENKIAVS
Method: universal PBM
Molecule type: double-stranded DNA, one strand shown
Sample: in vitro
Concentration: 600 nM
Notes: 8-mer, flanks averaged, mean of replicates
Direction: higher = stronger binding
Strand	E-score
CTGGTCGA	-0.292
GGTACCAA	-0.253
CATTAGAC	0.00656

Other studies, line by line
Molecule	target	assay	test system	conditions	scale	endpoint	value
HKTFRKLRLFDTP	human cyclin B2	cyclin docking binding, deep mutational scanning	peptide, yeast cyclin B2-Cln2 system		direction not given	score minus score, wild type	0
PhoQ, residues 284 288 289 292 302 303 GTAMQF	PhoP, residues 12 14 15 18 19 LHSVQ (Escherichia coli, UniProt P23836)	Sort-seq, refers to: YFP reporter	E. coli	PhoQ-PhoP variant library, together with: 10 µM Mg2+	reference: high Mg2+ state, higher = stronger signaling	fold induction	1.06

A few entries again (other studies, line by line):
Molecule	target	assay	test system	conditions	scale	endpoint	value
HKTFRKLRLFDTP	human cyclin B2	cyclin docking binding, deep mutational scanning	peptide, yeast cyclin B2-Cln2 system		direction not given	score minus score, wild type	0
